Published values of several laboratories.
“And” joins repeats or separate records; there may be more than shown.
Target: Tyrosine-protein kinase receptor UFO (AXL, Homo sapiens, UniProt P30530)

`O=C(Cc1ccc(OCc2ccccc2)cc1)NC1(C(=O)O)CCN(C(=O)c2ccc(-c3cccc(Cl)c3)cc2)CC1` — result for “activity vs control”: 76% (enzyme activity, inhibitor; 10 µM).
`Cc1cccc(O[C@H]2CCC[C@@H](C(C)CNCc3ccncc3)C2)c1` (relative stereo) has an inhibition of -3% (cell-free assay; 10 µM).
For `C=CC(=O)N1CCc2ccc(-n3c(=O)ccc4cnc5ccc(-c6cnn(C)c6)cc5c43)cc21`, the remaining binding was 100% (KINOMEscan; 1 µM; baseline: DMSO control).
For `CNS(=O)(=O)Nc1nccc(Cc2c(C)c3ccc(Oc4ncccc4F)cc3oc2=O)c1F`, the remaining binding was 98% (binding, competition with immobilised ligand; 10 µM).
For `COCC12C(=O)NC3C4(C(OC)CC1O)C1CC5(O)C(OC)C(O)C(OC(C)=O)(C1C5OC(=O)c1ccccc1)C3(O)C(OC)C24` (centres unmarked), the remaining activity was 103% and 107% (kinase activity, inhibitor, ProQinase kinase profiling; 25 µM; baseline: control).
For `CC(C)=CC1OC(C)(C)C2C=C3C(=O)C(Cl)=CC(O)C3C3C(O)C4OC4C(=O)C132` (centres unmarked), the remaining binding was 97% (cell-free assay, competition with immobilised ligand; 10 µM).
`C=CC(=O)N1Cc2nc(-c3cc(-c4cc(Cl)cnc4Cl)c(F)cc3F)n(-c3ccncn3)c2C1` gave an inhibition of -0.9% (cell-free assay; 1 µM).
For `Cc1ccc(-c2c(/C=C(\C#N)C(=O)NC(C)C)n(CCCO)c3ncnc(N)c23)cc1`, the remaining binding was 68% (cell-free assay, competition with immobilised ligand; 1 µM).
`COc1ccc(NC(=O)Nc2ccc3c(c2)C(=O)N(C(C)CO)CC(C)C(CN(C)Cc2ccc4c(c2)OCO4)O3)cc1` (centres unmarked) gave a remaining binding of 84% (binding, competition with immobilised ligand; 10 µM).
With `CN1CC[C@@H](COc2cnc(C#N)cc2-c2ccn3nc(NC(=O)C4CC4)cc3c2)C1` the inhibition was 2% (enzyme activity, inhibitor; 1 µM).
`NC(=O)C[C@H]1CCc2sc3ncnc(O[C@H]4CC[C@H](N5CCOCC5)CC4)c3c21` has an inhibition of 1% (enzyme activity, inhibitor; 10 µM).
With `C[C@]1(O)CCCN(c2nc(Nc3ccc(S(=O)(=O)N[C@H]4CC[C@H](CN5CCN(c6ccc(C7CCC(=O)NC7=O)cc6F)CC5)CC4)cc3)ncc2C(F)(F)F)C1` (some centres unmarked) the remaining binding was 0.4% (binding, competition with immobilised ligand; 1 µM).
For `CNC(=O)C[C@H](Cc1ccc(C#N)cc1)NC(=O)c1cc(-c2ccc(CN[C@H](C)c3ccc(C)cc3)o2)ccc1Cl`, “activity vs control” read 96% (enzyme activity, inhibitor; 1 µM).
With `O=C=[N][Ru-4]123([n]4c5ccc(O)cc5c5c6c(c7cc(F)c[n+]1c7c54)C(=O)NC6=O)[S+]1CC[S+]2CC[S+]3CC1` (centres unmarked) the remaining activity was 100% (enzyme activity; 100 nM, human enzyme, with: 10 µM ATP; baseline: untreated).
For `Nc1ncc2c(n1)-c1c([nH]c3ccc(C4=CCOCC4)cc13)CCC2`, the remaining binding was 72% (binding, competition with immobilised ligand; 1 µM).
`CN1CCN(Cc2ccc(NC(=O)c3cccc(C#Cc4cnc(N)c5ncccc45)c3)cc2C(F)(F)F)CC1` gave a remaining binding of 54% (cell-free assay, competition with immobilised ligand; 50 nM).
The inhibition of `C=CC(=O)Nc1cccc(-c2cnc3[nH]cc(C(=O)NC(C)(C)C)c3n2)c1` is reported as 27% (enzyme activity, inhibitor; 0.1 µM).
With `C=C1CCCCCCCCCC(CO)C1=O` (centres unmarked) the remaining binding was 96% (cell-free assay, competition with immobilised ligand; 10 µM).
`COc1cc(Nc2nccc(-c3cnn4nc(OC)ccc34)n2)cc(C(F)(F)F)c1` gave a remaining binding of 72% (binding, competition with immobilised ligand; 1 µM).
`CC(=O)N1c2ccc(-c3ccc(CNC(=O)c4cn5cc(-c6cnc(N)nc6)nc(N6CCOCC6)c5n4)cc3)cc2CC[C@@H]1C` has a remaining binding of 33% (binding, competition with immobilised ligand; 10 µM).

Repeated from above:
`CN1CCN(Cc2ccc(NC(=O)c3cccc(C#Cc4cnc(N)c5ncccc45)c3)cc2C(F)(F)F)CC1` gave a remaining binding of 54% (cell-free assay, competition with immobilised ligand; 50 nM).
The inhibition of `C=CC(=O)Nc1cccc(-c2cnc3[nH]cc(C(=O)NC(C)(C)C)c3n2)c1` is reported as 27% (enzyme activity, inhibitor; 0.1 µM).
